Published values gathered from unrelated publications.
Each line is one published result; not all experiments were run side by side. Numbers after ± are the reported error.
Integrin alpha-V/beta-3: Integrin alpha-V/beta-3 (Homo sapiens, UniProt P05106+P06756)
CYP2B6: Cytochrome P450 2B6 (CYP2B6, Homo sapiens, UniProt P20813)
EGLN1: Egl nine homolog 1 (EGLN1, Homo sapiens, UniProt Q9GZT9)
PDGFRB: Platelet-derived growth factor receptor beta (PDGFRB, Homo sapiens, UniProt P09619)
CTSL: Procathepsin L (CTSL, Homo sapiens, UniProt P07711)
NMBR: Neuromedin-B receptor (NMBR, Homo sapiens, UniProt P28336)

Structure (SMILES)	target	test	system	setting	IC50 [µM]
O=C1C2=C(Nc3ccccc3SC2c2ccsc2)c2ccccc21 (racemic)	Type II NADH dehydrogenase (Plasmodium falciparum, UniProt Q8I302)	enzyme activity, inhibitor, fluorescence NAD+ quantitation	recombinant enzyme	–	> 20
CC[C@H](C)[C@H](NC(=O)[C@H](CC(C)C)NC(=O)[C@H](CCCNC(=N)N)NC(=O)c1ccc(CN2CCNCC2)c(O)c1)C(=O)N[C@@H](Cc1ccccc1)C(N)=O	Cyclin-A2, with CDK2 (CCNA2, Homo sapiens, UniProt P20248)	binding to cyclin groove, inhibitor, fluorescence polarization competition	–	–	4.56 ± 0.74
CNC(=O)c1ccc(Oc2nc3c(c(=O)n(C)c(=O)n3C)n2CCC(C)C)cc1	HSD17B4 (Homo sapiens, UniProt P51659)	–	–	–	> 57
O=C(O)CC[C@H](NC(=O)N[C@@H](CCCCNC(=O)CCCCCCC(=O)NCCCCNC(=O)CN1CCN(CC(=O)O)CCN(CC(=O)O)CCN(CC(=O)O)CC1)C(=O)O)C(=O)O	Integrin alpha-V/beta-3	ligand displacement, FP	–	–	> 10
CCC(=O)N(C)c1ccc(Cl)c(Cl)c1	CYP2B6	enzyme activity, inhibitor	human, liver microsomes	10 min	> 25
CN1C[C@H](c2cccc(C(F)(F)F)c2)[C@@H](C(=O)Nc2ccccc2F)C1=O	dihydroorotate dehydrogenase (Zea mays, UniProt B6U892)	enzyme activity, DCPIP colorimetric	–	–	0.036 ± 0.014
CCC(c1nnnn1Cc1cccs1)N1CCN(c2nc3cc(N(C)C)cc(F)c3s2)CC1 (stereo not shown)	Deoxyribonuclease-1 (DNASE1, Bos taurus, UniProt P00639)	enzyme activity, inhibitor, fluorescence DNA degradation	–	pH 7.5, added: FITC-labelled DNA substrate	32
O=C(O)CCCC(=O)NNC(=O)c1cc2ccccc2cn1	EGLN1	inhibitor, AlphaScreen	–	bimodal curve, rough estimate, added: 2 µM 2-oxoglutarate	24.6
COc1cc2nccc(Oc3ccc(NC(=S)NCCc4ccccc4)c(Cl)c3)c2cc1C(N)=O	PDGFRB	–	–	–	0.186
[2H]C1([2H])CC[C@@H](C[C@@H](C#N)NC(=O)[C@@H]2[C@@H]3[C@H](CN2C(=O)[C@@H](NC(=O)C(F)F)C(C)(C)C)C3(C)C)C(=O)N1	CTSL	enzyme activity, inhibitor	–	–	≥ 1000
Cc1ccccc1S[C@@H]1O[C@H](CO)[C@@H](O)[C@H](O)[C@H]1O	SLC5A1 (Homo sapiens, UniProt P13866)	transporter uptake, inhibitor, radiometric	–	–	37
Cn1c(=O)c2c(nc(OC3CCN(C(=O)C4CC4)CC3)n2Cc2cccc(Cl)c2)n(C)c1=O	ALDH1A1 (Homo sapiens, UniProt P00352)	–	–	–	0.545 ± 0.174
CCCC[C@H](NC(=O)[C@H](Cc1ccccc1)NC(=O)[C@H](Cc1c[nH]cn1)NC(=O)CCNC(=O)[C@@H](NC(=O)[C@H](C)NC(=O)[C@H](Cc1c[nH]c2ccccc12)NC(=O)[C@H](CC(N)=O)NC(=O)[C@H](N)Cc1ccc(O)cc1)C(C)C)C(N)=O	NMBR	NMBR activity, cell-based	–	–	0.0054 to 0.042
O=C(O[C@H](CO)C(F)(F)F)N1C[C@@H]2[C@H](C1)[C@H]2c1ccn(-c2ccc(F)cn2)n1	Mgll (Mus musculus, UniProt O35678)	enzyme activity, ABPP with FP-rhodamine	mouse brain lysate	30 min preincubation, 37 °C	0.0071
Cn1cc(C(=O)C(=O)Nc2ccc(C(=O)N3CCCC3)cc2)c2ccccc21	Nucleoside transporter 1 (Plasmodium vivax, UniProt A5K8B0)	[3H]adenosine uptake	target-expressing yeast	–	0.0317 ± 0.0076
CC[C@@H](C)[C@@H](NC(=O)[C@@H](CCCCN)NC(=O)[C@@H](CC(C)C)NC(=O)[C@H](N)[C@H](C)O)C(=O)N[C@@H](C(=O)N[C@H](Cc1c[nH]c2ccccc12)C(=O)O)C(C)C	Microtubule-associated protein tau, K18 fragment, monomeric (MAPT, Homo sapiens, UniProt P10636)	tau K18 aggregation, inhibitor, thioflavin T fluorescence	–	pH 7.4, 37 °C, added: heparin 15 µM	19.6 ± 1.4
COc1cc2nccc(Oc3ccc(NC(=S)NCC4CC4)c(Cl)c3)c2cc1C(N)=O	PDGFRB	–	–	–	0.0311

Structure (SMILES)	target	test	system	setting	IC50 [µM]
O=C(NN1CCS(=O)(=O)CC1)c1ccncc1Nc1ccc(I)cc1F	MAP2K2 (Homo sapiens, UniProt P36507)	enzyme activity, inhibitor, radiometric	–	–	0.03
O=c1c2ccccc2[s+]([O-])n1-c1ccccc1 (stereo not shown)	HDAC5 (Homo sapiens, UniProt Q9UQL6)	enzyme activity, inhibitor	–	–	> 10
CC(C)CN(Cc1ccc(F)cc1)c1nc(C#N)nc(N2CCOCC2)n1	CTSL	enzyme activity, inhibitor, fluorescence	–	–	0.002
C=CC1C(OC2OC(CO)C(O)C(O)C2O)OC=C(C(=O)OC)C1CC1CC(=O)CC(CC(=O)CCc2ccc(O)cc2)O1 (stereo not shown)	MAL12 (Saccharomyces cerevisiae S288c, UniProt P53341)	enzyme activity, inhibitor, absorbance	–	–	> 100
NC1CCC(Nc2nccc(-c3cccnc3Oc3ccc(NS(=O)(=O)Cc4ccccc4Cl)c4ccccc34)n2)CC1 (stereo not shown)	Serine/threonine-protein kinase/endoribonuclease IRE1, RNase domain (ERN1, Homo sapiens, UniProt O75460)	RNase activity, inhibitor	–	added: XBP1 mini-substrate	0.0094 ± 0.001
O=c1nc(NO)ccn1[C@@H]1O[C@H](CO)[C@@H](O)[C@H]1O	CYP2B6	–	–	20 min, pH 7.4	> 100
COc1cc2nccc(Oc3ccc4c(c3)CCCN4C(=S)NC3CC3)c2cc1C(N)=O	KDR (Homo sapiens, UniProt P35968)	–	–	–	0.0757
CC[C@H](C)[C@@H]1NC(=O)[C@H](CCCNC(=N)N)NC(=O)[C@H](CCCNC(=N)N)NC(=O)[C@H](CC(C)C)NC(=O)[C@@H](NC(=O)[C@H](C)NC(=O)[C@H](C)NC(C)=O)CSCc2ccc(cn2)-c2ccc(nc2)CSC[C@@H](C(=O)N[C@H](C(=O)N[C@@H](CC(N)=O)C(=O)N[C@@H](CC(C)C)C(=O)N[C@@H](CCCNC(=N)N)C(=O)N[C@@H](CCC(N)=O)C(=O)N[C@@H](CCCCN)C(=O)N[C@@H](CC(C)C)C(=O)N[C@@H](CC(C)C)C(=O)N[C@@H](CC(N)=O)C(N)=O)C(C)C)NC(=O)[C@H](CC(=O)O)NC(=O)CNC1=O	MCL1 (Homo sapiens, UniProt Q07820)	ligand displacement, FP	–	–	0.041
COc1cc2nccc(Oc3ccc(NC(=S)NCCN4CCOCC4)c(Cl)c3)c2cc1C(N)=O	PDGFRB	–	–	–	0.0417
OC[C@@H]1NC[C@H](O)[C@@H]1O	Lysosomal alpha-mannosidase (Drosophila melanogaster, UniProt Q9VKV1)	–	–	pH 5.2, added: 2 mM pNP-Man	7500
CC(C)[C@H](NC(=O)[C@H](C)NC(=O)[C@H](Cc1c[nH]c2ccccc12)NC(=O)[C@H](Cc1c[nH]cn1)NC(=O)[C@H](N)Cc1ccccc1)C(=O)N[C@H](C)C(=O)N[C@@H](Cc1c[nH]cn1)C(=O)N1CCC[C@@H]1CN[C@@H](Cc1ccccc1)C(N)=O	NMBR	inositol phosphate generation, antagonist	Balb 3T3 expressing NMBR	added: neuromedin B 1 nM	> 10
CC(C)C[C@@H]1NC(=O)[C@H]([C@@H](C)O)NC(=O)[C@H](Cc2ccccc2)NC(=O)CNC(=O)[C@H](Cc2c[nH]c3ccccc23)NC(=O)[C@H](Cc2c[nH]cn2)NC(=O)[C@H]([C@@H](C)O)NC(=O)[C@H]([C@@H](C)O)NC(=O)[C@H](C)NC(=O)C[C@@H](C(N)=O)NC1=O	MMP2 (Homo sapiens, UniProt P08253)	enzyme activity, inhibitor	–	–	11
O=CCCC(=O)O	EGLN1	enzyme activity, inhibitor, mass spectrometry	–	–	2900
N=C(N)NCCC[C@@H]1NC(=O)[C@H](CCCCNC(=O)CNC(=O)CNC(=O)CNC(=O)CC[C@H](NC(=O)CNC(=O)CNC(=O)CNC(=O)CC[C@H](NC(=O)CN2CCN(CC(=O)O)CCN(CC(=O)O)CCN(CC(=O)O)CC2)C(=O)NCC(=O)NCC(=O)NCC(=O)N[C@@H](CCC(=O)NCC(=O)NCC(=O)NCC(=O)NCCCC[C@@H]2NC(=O)[C@@H](Cc3ccccc3)NC(=O)[C@H](CC(=O)O)NC(=O)CNC(=O)[C@H](CCCNC(=N)N)NC2=O)C(=O)NCC(=O)NCC(=O)NCC(=O)NCCCC[C@@H]2NC(=O)[C@@H](Cc3ccccc3)NC(=O)[C@H](CC(=O)O)NC(=O)CNC(=O)[C@H](CCCNC(=N)N)NC2=O)C(=O)NCC(=O)NCC(=O)NCC(=O)NCCCC[C@@H]2NC(=O)[C@@H](Cc3ccccc3)NC(=O)[C@H](CC(=O)O)NC(=O)CNC(=O)[C@H](CCCNC(=N)N)NC2=O)NC(=O)[C@@H](Cc2ccccc2)NC(=O)[C@H](CC(=O)O)NC(=O)CNC1=O	Integrin alpha-V/beta-3	ligand displacement, radioligand	–	–	0.0004
COc1cc2nccc(Oc3ccc(NC(=S)NC4CC4)nc3)c2cc1C(N)=O	PDGFRB	–	–	–	3.81
COc1ccc(-c2cc(C(F)(F)F)nc(S(=O)(=O)CCC(=O)Nc3ccc(C)cc3)n2)cc1	WRN (Homo sapiens, UniProt Q14191)	DNA unwinding, inhibitor, TAMRA dequenching	–	10 nM full-length enzyme, 500 nM trap DNA, added: 50 nM DNA substrate, 60 µM ATP	0.534
COCCn1cc2c(n1)CN(C(=O)Nc1nc(-c3ccc(F)cc3F)ccc1N)C2	HDAC10 (Homo sapiens, UniProt Q969S8)	deacetylase activity, inhibitor, recombinant enzyme	–	–	> 30

A few entries again:
Structure (SMILES)	target	test	system	setting	IC50 [µM]
COc1cc2nccc(Oc3ccc(NC(=S)NC4CC4)nc3)c2cc1C(N)=O	PDGFRB	–	–	–	3.81
O=C(O)CCCC(=O)NNC(=O)c1cc2ccccc2cn1	EGLN1	inhibitor, AlphaScreen	–	bimodal curve, rough estimate, added: 2 µM 2-oxoglutarate	24.6
